Results of several laboratories.
Each line is one published result; not all experiments were run side by side. Values joined by “and” are separate records of one study, mostly repeats; a detail may differ. Numbers after ± are the reported error.
Fibroin-modulator-binding protein-1: Fibroin-modulator-binding protein-1 99-193 (Bombyx mori, UniProt Q5FBS0)

Substance	tested on	assay	system	setting	scale	measurement	result
QDEKVKESYV	human SCRIB PDZ3-4 tandem (MBP fusion)	surface plasmon resonance	peptide	concentration not given	higher = stronger binding	normalised SPR binding response	60.2 normalised RU
TSTVQLIM	HLA class I histocompatibility antigen, A alpha chain, allele A*01:01 (Homo sapiens, UniProt P04439)	conformational ELISA	peptide	concentration not given	relative to: positive control peptide, direction not given	binding score	0.8%
GLGQWVPQV	Jurkat T cells expressing 1G4 TCR	NFAT-eGFP reporter, fluorescence microscopy	peptide	concentration not given, HLA-A*02:01 NY-ESO system	–	reporter activation	0.0041%
CTCATTGTCT	Salmonella enterica Typhimurium	RNA-seq, measured: pipB2 mRNA	peptide, SL1344	5 µM, 15 min	relative to: water control	log2 fold change	2.87
tripeptidyl peptidase 2	–	co-immunoprecipitation	human RBC membrane	DMTMM crosslinker, unit not given, together with: Band 3 peptide 1-56 bait	relative to: negative control	co-IP enrichment	223
GEMVGQARILAQATSDLVNAIKDA	vinculin head domain Vd1	complex rupture, AFM single-molecule force spectroscopy	peptide	traces traces, C-terminal pulling, 800 nm/s	–	rupture force FWHM upper side	26 pN
SLMQWVTQV	Jurkat T cells expressing 1G4 TCR	NFAT-eGFP reporter, fluorescence microscopy	peptide	concentration not given, HLA-A*02:01 NY-ESO system	–	reporter activation	28.5%
ATACATACATACATAC (dsDNA)	Fibroin-modulator-binding protein-1	ITC	double-stranded DNA, one strand shown	–	–	Kd	0.107 ± 0.0045 µM
NRVDSKETEC	human MAGI1-3/6 PDZ construct (MBP fusion)	automated holdup	peptide, purified PDZ protein	concentration not given, unit not given	relative to: biotin control resin, higher = stronger binding	binding intensity	0.0477
ILEAAKSIAAATSALVKAASAAQRE	vinculin head domain Vd1	complex rupture, AFM single-molecule force spectroscopy	peptide	single traces, N-terminal pulling, 800 nm/s	–	mean rupture force	60.4 pN
human HSC70	–	co-immunoprecipitation	human RBC membrane	DSSO crosslinker, unit not given, together with: Band 3 peptide 1-56 bait	relative to: negative control	co-IP enrichment	12.5
maraviroc	HBMEC	gene expression, qPCR	–	2.5 µM, 24 h	relative to: untreated cells, increase	mRNA level	13.7 fold
adenosylhomocysteinase	–	co-immunoprecipitation	human RBC membrane	DMTMM crosslinker, unit not given, together with: Band 3 peptide 1-56 bait	relative to: negative control	co-IP enrichment	13.8
MPFGSLLDYV	HLA class I histocompatibility antigen, A alpha chain, allele A*02:01 (Homo sapiens, UniProt P04439)	conformational ELISA	peptide	concentration not given	relative to: positive control peptide, direction not given	binding score	3.4%
milbemycin oxime	Saccharomyces cerevisiae	cell growth	Pdr5 deleted, Cdr1 overexpressed	2^-8.966 µg/mL	–	OD600	0.983 and 1.01 and 0.949
GLFQWTARA	Jurkat T cells expressing 1G4 TCR	NFAT-eGFP reporter, fluorescence microscopy	peptide	concentration not given, HLA-A*02:01 NY-ESO system	–	reporter activation	0.0123%
GSGAGQITKV	human MAGI1-2/6 PDZ construct (MBP fusion)	automated holdup	peptide, crude extract	concentration not given, uncorrected, unit not given	relative to: biotin control resin, higher = stronger binding	binding intensity	0.215
human LDL receptor	–	co-immunoprecipitation	human RBC membrane	DMTMM crosslinker, unit not given, together with: Band 3 peptide 1-56 bait	relative to: negative control	co-IP enrichment	11.5
CGGACGGACGGA (dsDNA)	Fibroin-modulator-binding protein-1	ITC	double-stranded DNA, one strand shown	–	–	Kd	5.95 ± 0.899 µM
GLGQWIPQA	Jurkat T cells expressing 1G4 TCR	NFAT-eGFP reporter, fluorescence microscopy	peptide	concentration not given, HLA-A*02:01 NY-ESO system	–	reporter activation	0.00314%
GSGAGIATEV	human MAGI1-2/6 PDZ construct (MBP fusion)	automated holdup	peptide, purified PDZ protein	concentration not given, unit not given	relative to: biotin control resin, higher = stronger binding	binding intensity	0.0401

Substance	tested on	assay	system	setting	scale	measurement	result
human retinal dehydrogenase 1	–	co-immunoprecipitation	human RBC cytosol	DMTMM crosslinker, unit not given, together with: Band 3 peptide 1-56 bait	relative to: negative control	co-IP enrichment	18700
Peginesatide	UT7/EPO	tyrosine phosphorylation, LC-MS/MS phosphoproteomics, GluC, measured: STAT3 tyrosine 705	–	10 nM, 15 min, together with: 10 U/mL EPO	relative to: vehicle	phosphorylation level	3.7 fold
EKPIDSETKM	human MAGI1-2/6 PDZ construct (MBP fusion)	automated holdup	peptide, crude extract	concentration not given, uncorrected, unit not given	relative to: biotin control resin, higher = stronger binding	binding intensity	0.785
DNA 1 CACTGGCCGTCTTACGGTCGCTCTGCTCGACG / DNA 2 CGACCGTAAGACGGCCAGTG (dsDNA; 20 bp, 3' 12 nt overhang)	RECQL 63-592 (Bos taurus, UniProt A0JN36)	fluorescence anisotropy	double-stranded DNA	together with: Mg2+ 3 mM	–	Kd	0.0106 ± 0.0017 µM
RLGQWIAQA	Jurkat T cells expressing 1G4 TCR	NFAT-eGFP reporter, flow cytometry	peptide	concentration not given, HLA-A*02:01 NY-ESO system	–	reporter activation	0.56%
MTVCNASQRQAHAQATAVSL	BEAS-2B normal bronchial epithelial	phage binding output/input	peptide	–	relative to: control phage	selectivity ratio	2.7 ± 1.3
GSGAGKESYV	human MAGI1-3/6 PDZ construct (MBP fusion)	automated holdup	peptide, crude extract	concentration not given, uncorrected, unit not given	relative to: biotin control resin, higher = stronger binding	binding intensity	0.74
GLFQWLAGV	Jurkat T cells expressing 1G4 TCR	NFAT-eGFP reporter, fluorescence microscopy	peptide	concentration not given, HLA-A*02:01 NY-ESO system	–	reporter activation	0.0113%
epoetin alfa	UT7/EPO	RT-qPCR, measured: FOS	–	concentration not given, 90 min, normalized to HPRT1	relative to: vehicle	mRNA level	11.8 fold
NPDALPETLV	human SCRIB PDZ3-4 tandem (MBP fusion)	automated holdup	peptide, crude extract	concentration not given, uncorrected, unit not given	relative to: biotin control resin, higher = stronger binding	binding intensity	0.169
human alpha-enolase	–	co-immunoprecipitation	human RBC membrane	DSSO crosslinker, unit not given, together with: Band 3 peptide 1-56 bait	relative to: negative control	co-IP enrichment	0.207
cotadutide	–	metabolomics, measured: hepatic valine	ob/ob mice on AMLN diet, NASH model, liver	dose not given	–	metabolite level	1.05 ± 0.04 scaled intensity
ALLQWVTQV	Jurkat T cells expressing 1G4 TCR	NFAT-eGFP reporter, flow cytometry	peptide	concentration not given, HLA-A*02:01 NY-ESO system	–	reporter activation	77.5%
GSGAGICTIV	human MAGI1-3/6 PDZ construct (MBP fusion)	automated holdup	peptide, crude extract	concentration not given, uncorrected, unit not given	relative to: biotin control resin, higher = stronger binding	binding intensity	0.0181
CTCATACAGT	Salmonella enterica Typhimurium	RNA-seq, measured: SL1344_3728 transcript	peptide, SL1344	5 µM, 15 min	relative to: untreated control	log2 fold change	2.55
colistin	Klebsiella pneumoniae	–	clinical isolate RKI 93/10	–	–	MIC	1 µg/mL
human GAPDH	–	co-immunoprecipitation	human plasma	unit not given, together with: Band 3 peptide 1-56 bait	relative to: negative control	co-IP enrichment	2.67
Polymyxin B	Staphylococcus aureus	–	CMCC 26003	concentration not given	–	NADH level	3.8 pmol/µL and 4.64 pmol/µL and 3.52 pmol/µL
human clusterin	–	co-immunoprecipitation	human RBC cytosol	no crosslinker, unit not given, together with: Band 3 peptide 1-56 bait	relative to: negative control	co-IP enrichment	0
ALFEWIPRV	Jurkat T cells expressing 1G4 TCR	NFAT-eGFP reporter, fluorescence microscopy	peptide	concentration not given, HLA-A*02:01 NY-ESO system	–	reporter activation	0.016%

Repeated from above:
Substance	tested on	assay	system	setting	scale	measurement	result
GLFQWLAGV	Jurkat T cells expressing 1G4 TCR	NFAT-eGFP reporter, fluorescence microscopy	peptide	concentration not given, HLA-A*02:01 NY-ESO system	–	reporter activation	0.0113%
epoetin alfa	UT7/EPO	RT-qPCR, measured: FOS	–	concentration not given, 90 min, normalized to HPRT1	relative to: vehicle	mRNA level	11.8 fold
NPDALPETLV	human SCRIB PDZ3-4 tandem (MBP fusion)	automated holdup	peptide, crude extract	concentration not given, uncorrected, unit not given	relative to: biotin control resin, higher = stronger binding	binding intensity	0.169
human alpha-enolase	–	co-immunoprecipitation	human RBC membrane	DSSO crosslinker, unit not given, together with: Band 3 peptide 1-56 bait	relative to: negative control	co-IP enrichment	0.207
cotadutide	–	metabolomics, measured: hepatic valine	ob/ob mice on AMLN diet, NASH model, liver	dose not given	–	metabolite level	1.05 ± 0.04 scaled intensity
ALLQWVTQV	Jurkat T cells expressing 1G4 TCR	NFAT-eGFP reporter, flow cytometry	peptide	concentration not given, HLA-A*02:01 NY-ESO system	–	reporter activation	77.5%
